# Measurements gathered from unrelated publications.
# “And” joins repeats or separate records; there may be more than shown. Numbers after ± are the reported error.
# Chain of UniProt P62258 (whole entry, looked up): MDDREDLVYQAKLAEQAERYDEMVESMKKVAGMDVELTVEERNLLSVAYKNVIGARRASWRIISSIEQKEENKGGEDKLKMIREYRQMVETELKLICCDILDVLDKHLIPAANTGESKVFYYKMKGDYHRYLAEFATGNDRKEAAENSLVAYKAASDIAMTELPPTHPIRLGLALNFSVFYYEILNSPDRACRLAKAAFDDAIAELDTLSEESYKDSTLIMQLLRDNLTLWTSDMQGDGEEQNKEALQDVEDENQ
SMILES,tested on,test,setting,how to read,measurement,result
Cc1ccc(/C=C2/CNCC3=C2N=C2SC=C(c4ccc5ccccc5c4)N2C3c2ccc(C)cc2)cc1 (centres unmarked),SH-SY5Y,MTT,"0.2 to 40 µM, 24 h",,viability,not toxic
N=C(N)NCCC[C@H](NC(=O)[C@H](CCCNC(=N)N)NC(=O)[C@H](CCCNC(=N)N)NC(=O)[C@H](CCC(N)=O)NC(=O)[C@H](CCCNC(=N)N)NC(=O)[C@H](CCCNC(=N)N)NC(=O)[C@H](CCCCN)NC(=O)[C@H](CCCCN)NC(=O)[C@H](CCCNC(=N)N)NC(=O)CNC(=O)[C@@H](N)Cc1ccc(O)cc1)C(=O)O,DF-1,LDH release,"3 µM, 1 h",,viability,98.6 ± 2.14%
Oc1ccc(C2(c3ccc(O)cc3)c3ccccc3-c3ccccc32)cc1,HepG2 spheroids,annexin V/PI flow cytometry,"40 µM, 24 h",,viability,57.9 ± 10.8%
N=C(N)NCCC[C@H](NC(=O)[C@H](CCCNC(=N)N)NC(=O)[C@H](CCCCN)NC(=O)[C@H](CCCNC(=N)N)NC(=O)[C@H](Cc1ccccc1)NC(=O)[C@H](Cc1ccc(O)cc1)NC(=O)[C@H](CCCNC(=N)N)NC(=O)[C@H](CCCNC(=N)N)NC(=O)[C@H](CCCNC(=N)N)NC(=O)[C@H](CCCNC(=N)N)NC(=O)[C@H](CCCNC(=N)N)NC(=O)[C@H](Cc1ccc(O)cc1)NC(=O)[C@H](CCCNC(=N)N)NC(=O)[C@@H](N)CCCNC(=N)N)C(=O)O,DF-1,LDH release,"1 µM, 1 h",,viability,99 ± 3.04%
Cc1ccc(C2=CSC3=NC4=C(CNC/C4=C/c4ccc(Cl)cc4)C(c4ccc(Cl)cc4)N23)cc1 (centres unmarked),SH-SY5Y,MTT,"0.2 to 40 µM, 24 h",,viability,not toxic
O=[N+]([O-])c1ccc(-c2nn(-c3ccccc3)c3sc(NC(c4ccccc4O)P(=O)(Oc4ccccc4)Oc4ccccc4)nc23)cc1 (centres unmarked),Vero cells,SRB,"1 µM, 10% fetal bovine serum",,viability,96.8%
C[C@H]1CN(c2n[nH]c3nc(N[C@H]4CC[C@H](NS(=O)(=O)CCC(F)(F)F)CC4)ncc23)CCO1,"14-3-3 protein epsilon (Homo sapiens, UniProt P62258)",biochemical,,,IC50,≥ 20 µM
Cn1cc2cc(C(F)(F)c3nnc4ccc(-c5cnn(C6CC6)c5)nn34)c(F)cc2n1,MKN-45,CCK-8,"0.025 µM, 72 h",reference: untreated,viability,7.04% and 6.22% and 6.96%
C[C@H](NC(=O)[C@H](Cc1ccc(O)cc1)NC(=O)[C@H](CCCNC(=N)N)NC(=O)[C@H](CCCNC(=N)N)NC(=O)[C@H](CCCNC(=N)N)NC(=O)[C@@H](N)CCCNC(=N)N)C(=O)N[C@@H](CCCNC(=N)N)C(=O)N1CCC[C@H]1C(=O)N[C@@H](Cc1ccc(O)cc1)C(=O)N[C@@H](Cc1ccc(O)cc1)C(=O)N[C@@H](CCCNC(=N)N)C(=O)N[C@@H](CCCNC(=N)N)C(=O)N[C@@H](CCCNC(=N)N)C(=O)O,DF-1,,"5 µM, 48 h",reference: untreated cells,viability,100.7 ± 0.51%
CN(C)c1ccc(C(Nc2nc3c(-c4ccc([N+](=O)[O-])cc4)nn(-c4ccccc4)c3s2)P(=O)(Oc2ccccc2)Oc2ccccc2)cc1 (centres unmarked),Vero cells,SRB,"0.1 µM, 10% fetal bovine serum",,viability,98.5%
O=C1/C(=C/c2ccc(Br)cc2)CN(Cc2ccc3ccccc3c2)C/C1=C\c1ccc(Br)cc1,SH-SY5Y,MTT,"0.2 to 40 µM, 24 h",,viability,not toxic

# Excerpt of the above:
SMILES,tested on,test,setting,how to read,measurement,result
C[C@H]1CN(c2n[nH]c3nc(N[C@H]4CC[C@H](NS(=O)(=O)CCC(F)(F)F)CC4)ncc23)CCO1,"14-3-3 protein epsilon (Homo sapiens, UniProt P62258)",biochemical,,,IC50,≥ 20 µM
